Published values collected from several papers.
Protocols differ between the studies behind these lines. Several values in a cell are separate wells, animals, samples, runs or records. ± gives the spread as reported.

SMILES	cell line	test	test system	setting	how to read	quantity	result
C=CC(=O)N1CCCC(n2c(=O)c3ncccc3n(Cc3ccc(Oc4ccccc4)cc3)c2=O)C1 (centres unmarked)	A20	cell growth or viability, MTT	–	72 h	–	IC50	800 nM
COC(=O)c1cc(NC2=NC(=O)C(=Cc3ccc(N(C)C)cc3)S2)ccc1OC(C)=O	A549	measured: CLSPN mRNA	–	2.93 µM (IC50), 24 h	relative to: DMSO	fold change	0.018
CCOc1cncc(-c2ccc(NC(=O)C3(c4ccnc(NS(=O)(=O)C5CC5)n4)CCOCC3)nc2)n1	renal cancer	cell viability, CellTiter-Glo	DMSO 0.1%	72 h, line code 393	–	IC50	10000 nM
O=C(C[Se]C(=O)c1ccccc1Nc1ccccc1)Nc1cccc(C(F)(F)F)c1	NCI60 breast subpanel	cell growth	–	10 µM, 48 h, one-dose	–	mean growth percent	-60.1%
NC(=O)c1ccc(-c2ccccc2Cl)c2c3c([nH]c12)CC[C@@H](N)C3	SU-DHL-4	cell growth or viability	–	–	–	IC50	22.2 nM
CC[C@H](C)[C@H](NC(=O)[C@H](CCCNC(=N)N)NC(C)=O)C(=O)N[C@H](C(=O)N[C@@H](Cc1ccc(O)cc1)C(=O)N[C@@H](CC(=O)O)C(=O)N[C@@H](CCCNC(=N)N)C(=O)N[C@H]1CCC(=O)NCCCC[C@@H](C(=O)N[C@@H](CS)C(=O)N[C@@H](CCCNC(=N)N)C(N)=O)NC(=O)[C@H](CCSC)NC(=O)[C@H](CC(C)C)NC(=O)[C@H](Cc2ccccc2)NC1=O)[C@@H](C)CC	HeLa stably expressing HaloTag-GFP	chloroalkane penetration	–	0.74 µM, 4 h, 37 °C	–	cell uptake	84 ± 2%
[Cl-].[Cl-].[Ru+2].c1cc(-c2ccc3cccnc3n2)nc(-c2ccc3cccnc3n2)c1.c1ccc2cc3nc4c5cccnc5c5ncccc5c4nc3cc2c1	B16-F10	–	–	visible light 100 J/cm2	relative to: dark EC50 over light EC50	phototherapeutic index	9
Cc1nc(Nc2ncc(C(=O)Nc3c(C)cccc3Cl)s2)cc(N2CCN(C(=O)CN)CC2)n1	KU812	flow cytometry	–	concentration not given, 24 h	–	early apoptotic cells	40.1% and 43.7% and 44.8%
CCN(CC)CC(=O)Nc1cccc(-n2cc(-c3ccc4ccc(-c5cn(-c6cccc(NC(=O)CN(CC)CC)c6)nn5)cc4c3)nn2)c1	RCC4	PCR angiogenesis array, measured: SERPINF1	–	5 x IC50, 4 h, normoxia	relative to: untreated	fold regulation	-1.3
O=C(C[Se]C(=O)c1cc2ccccc2o1)Nc1cccc(C(F)(F)F)c1	NCI60 breast subpanel	cell growth	–	10 µM, 48 h, one-dose	–	mean growth percent	-70.7%
CC(C)(C)c1cc(-c2ccc3cc4ccccc4nc3n2)nc(-c2ccc3cc4ccccc4nc3n2)c1.[Cl-].[Cl-].[Ru+2].c1ccc2cc3nc4c5cccnc5c5ncccc5c4nc3cc2c1	B16-F10	resazurin	–	together with: light 633 nm, 100 J/cm2	relative to: dark EC50 over light EC50	phototoxicity index	1
CC(=O)NCCCN(C)CCCNc1cccc2c1C(=O)c1cccc(NCCCN(C)CCCNC(C)=O)c1C2=O	SAS	RNA-Seq, measured: HSPA5 mRNA	–	1 µM, 6 h	relative to: untreated cells	log2 fold change	-0.435
COc1cc([C@@H]2O[C@@H](c3cc(OC)c(O[C@@H]4O[C@H](CO)[C@@H](O)[C@H](O)[C@H]4O)c(OC)c3)[C@H](CO)[C@H]2CO)cc(OC)c1O	differentiating 3T3-L1	Western blot, measured: C/EBPα PPARγ SREBP1c	–	concentration not given, day 2	–	protein expression	decreased
CC(C)(C)c1cc(-c2ccc3cccnc3n2)nc(-c2ccc3cccnc3n2)c1.COc1ccncc1.[Cl-].[Cl-].[Ru+2].c1ccc2cc3nc4c5cccnc5c5ncccc5c4nc3cc2c1	B16-F10	resazurin	–	together with: light 523 nm, 100 J/cm2	relative to: dark EC50 over light EC50	phototoxicity index	63
CNS(=O)(=O)Nc1nccc(Cc2c(C)c3ccc(Oc4ncccc4F)cc3oc2=O)c1F	VCaP	cell viability	–	7 days	–	IC50	> 1000 nM
Cn1ncc2cc(-c3cncc(Cl)c3N3CCC4(CCNC4=O)CC3)ccc21	LS174T	gene expression, microarray, measured: CXCR4 mRNA	–	concentration not given, 24 h	relative to: untreated cells	log2 fold change	2.78
CN1CCCNC(=O)c2cccc(c2)C(=O)NCCCN(C)CCCNc2cccc3c2C(=O)c2cccc(c2C3=O)NCCC1	SAS	RNA-Seq, measured: MRPL10 mRNA	–	1 µM, 6 h	relative to: untreated cells	log2 fold change	0.485
COc1ccccc1-c1ccncc1C(=O)Nc1nnc(OCc2ccc(Cl)cc2)s1	PEO1 BRCA2-mutant	–	–	1.00 µM, together with: olaparib 2 µM	–	colony survival	0%
CC(=O)NCC(=O)N[C@@H](Cc1ccccc1)C(=O)N[C@@H](Cc1ccccc1)C(=O)N[C@@H](Cc1ccc(O)cc1)C(=O)NCC(=O)N[C@@H](Cc1ccc(O)cc1)C(=O)NCC(=O)N[C@@H](CO)C(=O)N[C@@H](CO)C(=O)N[C@@H](CO)C(=O)N[C@@H](CCCNC(=N)N)C(=O)N[C@@H](CCCNC(=N)N)C(=O)N[C@@H](C)C(=O)N1CCC[C@H]1C(=O)N[C@@H](CCC(N)=O)C(=O)N[C@H](C(=O)O)[C@@H](C)O	mouse dermal papilla cells	western blot	–	100 nM	relative to: untreated	IGF-1R phosphorylation	1.34 fold
Cc1c2ccnc(C(=O)N[C@H](C)CN(C)C)c2cc2c3cc(OCCCN4CCN(C)CC4)ccc3n(C)c12	C9orf72 patient-derived iPSC	qRT-PCR, measured: C9orf72 intron 1	–	0.5 µM, together with: siRNA 500 nM	–	C9orf72 intron RNA level	59%
Cc1ncsc1-c1ccc(C(C)NC(=O)C2CC(O)CN2C(=O)C(NC(=O)CCCCCCCCCCN2CCCC(Nc3ncc(Cl)c(Nc4ccccc4S(=O)(=O)C(C)C)n3)C2)C(C)(C)C)cc1 (centres unmarked)	22Rv1	RNA-seq, measured: TMEM186 mRNA	–	concentration not given	relative to: DMSO	log2 fold change	-1.3
CC(C)c1ccc(N(C)c2ccc3c(c2)OCC[C@H]3CNc2cnccc2C(=O)O)cc1	AZ-521	cell viability, CellTiter-Glo	–	7 days	–	IC50	4.19 nM
[BH3-][P+]1(c2ccccc2)CCCCC1	SW-620	annexin V/PI flow cytometry	–	IC50, 72 h	–	early apoptotic cells	5.1%
O=C(C[Se]C(=O)c1ccccc1Nc1cccc(C(F)(F)F)c1)Nc1cccc(C(F)(F)F)c1	NCI60 breast subpanel	cell growth	–	10 µM, 48 h, one-dose	–	mean growth percent	-84.8%
COCCCCCNc1nc(NCCCCCCN(C)C)c2cc(NC(=O)/C=C/CN(C)C)ccc2n1	MCF7	CellTiter-Glo	–	50 µM, 72 h, unit not given	relative to: DMSO-treated cells	viability	0.908 and 0.886 and 0.838
CCN(C(=O)c1cc(F)ccc1Oc1nncnc1N1CCC2(C1)CN([C@H](CCCN(C)CCOC)C(C)C)C2)C(C)C	MHH-ES-1	cell growth or viability	–	7 days	–	GI50	> 10 µM
COc1ccc(NC(=O)c2ccc3[nH]c(-c4ccc(N(C)C)cc4)nc3c2)cn1	HCEC-hTERT	IncuCyte	–	concentration not given, 0 h	–	dead cell to confluence ratio	1.98 and 1.06 and 0.746
Cc1cc(Cl)cc(-c2ccnc3cc(CN4C(=O)C5C(C4=O)C5(C)C)sc23)c1C[C@@H]1CNCCO1 (some centres unmarked)	CHP-212 USP7 V517F knock-in clone	SRB	–	0.07812 µM	–	viability	106%
N#Cc1cccc(/C=C/C(=O)c2ccc(O)cc2)c1	U-87 MG	measured: KLHL24	–	concentration not given	relative to: untreated	fold change	45.6
